# Measured values of several laboratories.
# “And” joins repeats or separate records; there may be more than shown. Numbers after ± are the reported error.
SMILES,organism,test,test system,conditions,how to read,quantity,result
CC1(C)S[C@@H]2[C@H](NC(=O)[C@H](N)c3ccccc3)C(=O)N2[C@H]1C(=O)O,Enterococcus faecalis,agar dilution,"vancomycin-intermediate, 20 isolates",,,MIC50,> 128 µg/mL
O=c1[nH]c2ncsc2c(=O)n1O,Brassica rapa,,,"100 mg/mL, 72 h",,root length inhibition,99%
Cc1nc(NCCCNc2ccnc3cc(Cl)ccc23)nc(-c2cccc([N+](=O)[O-])c2)c1C(=O)OC(C)C,reovirus 1,viral replication,Vero,,,EC50,> 20000 nM
CC(=O)Oc1ccccc1C(=O)Nc1ncc([N+](=O)[O-])s1,Cryptosporidium parvum,,HCT-8,"12 x EC90, 0 h",reference: DMSO control,parasite number,96.8% and 109% and 93.3% and 101%
N=C(N)c1cccc(OCc2ccc(COc3cccc(C(=N)N)c3)cc2)c1,Escherichia coli,checkerboard,BW25113,"concentration not given, lowest-FICI combination, added: rifampicin",,MIC of compound in combination,50 µg/mL
CC(=O)NC[C@H]1CN(c2ccc(N3CCOCC3)c(F)c2)C(=O)O1,Enterococcus faecalis,agar dilution,"vancomycin-intermediate, 20 isolates",,,MIC50,2 µg/mL
CC(C)[C@@H]1NC(=O)[C@@H](CCCN)NC(=O)[C@H]([C@@H](C)O)NC(=O)[C@@H](CCCN)NC(=O)[C@H](Cc2ccccc2)NC(=O)[C@@H](Cc2ccccc2)NC1=O,Acanthamoeba castellanii,,,trophozoites,,IC90,> 16 µg/mL
COC(=O)[C@H](Cc1c[nH]c2ccccc12)NCc1cc2ccccc2nc1OC,Pseudomonas aeruginosa,,,"128 µg/mL, added: pentamidine 100 µM",reference: control,growth,44.2%
N=C(N)c1ccc(OCc2cccc(COc3ccc(C(=N)N)cc3)c2)cc1,Escherichia coli,outer membrane permeabilization,BW25113,"60 min, added: NPN 0.01 mM",,concentration for maximal NPN uptake,3.1 µg/mL
CC(C)[C@@H]1NC(=O)[C@@H](CCCCN)NC(=O)[C@H]([C@@H](C)O)NC(=O)[C@@H](CCCN)NC(=O)[C@H](Cc2ccccc2)NC(=O)[C@@H](Cc2ccccc2)NC1=O,Acanthamoeba castellanii,,,trophozoites,,IC90,> 16 µg/mL
c1ccc(CN(CCN(Cc2ccccn2)Cc2ccccn2)Cc2ccccn2)nc1,"MRSA, MRSE, Enterococcus faecalis","biofilm eradication, Calgary biofilm device",,all strains tested,,MBEC,> 2000 µM
N=C(N)c1ccc(OCc2cc(Br)cc(COc3ccc(C(=N)N)cc3)c2)cc1,Escherichia coli,checkerboard,ATCC 25922,"unit not given, added: rifampicin",lower = stronger synergy,FICI,0.078
Cc1nc2[nH]c(=O)n(O)c(=O)c2s1,Brassica rapa,,,"750 g/ha, 21 days, pre-emergence, glasshouse pot",,growth inhibition,6.2%
CC[C@H]1OC(=O)[C@H](C)[C@@H](O[C@H]2C[C@@](C)(OC)[C@@H](O)[C@H](C)O2)[C@H](C)[C@@H](O[C@@H]2O[C@H](C)C[C@H](N(C)C)[C@H]2O)[C@](C)(O)C[C@@H](C)/C(=N\OCOCCOC)[C@H](C)[C@@H](O)[C@]1(C)O,Enterococcus faecalis,agar dilution,vancomycin-intermediate,20 isolates,,MIC50,> 128 µg/mL
CC1(C)OB(c2cccc(CNS(=O)(=O)c3cc(C(=O)Nc4cc(F)c(F)c(F)c4)ccc3F)c2)OC1(C)C,hepatitis B virus,"viral replication, qPCR, measured: intracellular core DNA",HepAD38 cells,6 days,,EC50,500 ± 70 nM
Cc1nc(NCCCCNc2ccnc3cc(Cl)ccc23)nc(-c2ccccc2[N+](=O)[O-])c1C(=O)OC(C)C,reovirus 1,viral replication,Vero,,,EC50,> 20000 nM
CCCc1nc2[nH]c(=O)n(O)c(=O)c2s1,Brassica rapa,,,"100 mg/mL, 72 h",,root length inhibition,98%
CN[C@H](CC(C)C)C(=O)N[C@H]1C(=O)N[C@@H](CC(N)=O)C(=O)N[C@H]2C(=O)N[C@H]3C(=O)N[C@H](C(=O)N[C@H](C(=O)O)c4cc(O)cc(O)c4-c4cc3ccc4O)[C@H](O)c3ccc(c(Cl)c3)Oc3cc2cc(c3O[C@@H]2O[C@H](CO)[C@@H](O)[C@H](O)[C@H]2O[C@H]2C[C@](C)(N)[C@H](O)[C@H](C)O2)Oc2ccc(cc2Cl)[C@H]1O,Streptococcus pyogenes,,ATCC 19615,,,MIC range,0.25 µg/mL
CCc1nc2[nH]c(=O)n(O)c(=O)c2s1,Brassica rapa,,,"10 mg/mL, 72 h",,root length inhibition,77%
Cc1cc(=O)c2c(o1)C[C@@H](O)C[C@H]2O,Zika virus,"viral replication, CCK-8",Vero C1008,"10 µM, 96 h",,inhibition,17.3 ± 1.12%
O=c1[nH]c2nc(-c3ccncc3)sc2c(=O)n1O,Brassica rapa,,,"10 mg/mL, 72 h",,root length inhibition,1%
C[C@@H](O)[C@H]1C(=O)N2C(C(=O)O)=C(S[C@@H]3CN[C@H](C(=O)N(C)C)C3)[C@H](C)[C@H]12,Morganella morganii,broth microdilution,clinical isolate RKI 93/15,,,MIC,≤ 0.5 µg/mL
COc1ccc(C[C@H](NC(=O)[C@H](C)NC(=O)CN2CCOCC2)C(=O)N[C@@H](Cc2ccccc2)C(=O)C2(C)CO2)cc1 (stereo in doubt),Plasmodium falciparum,,3D7,"concentration not given, 48 h",,ring-stage parasites remaining,3 to 4%
Cc1nc2c(=O)n(O)c(=O)[nH]c2s1,Brassica rapa,,,"10 mg/mL, 72 h",,root length inhibition,20%
CN(C)[C@@H]1C(O)=C(C(N)=O)C(=O)[C@@]2(O)C(O)=C3C(=O)c4c(O)cccc4[C@@](C)(O)[C@H]3C[C@@H]12,Acinetobacter calcoaceticus,,150,,,MBC,8 µg/mL
CO[C@H]1/C=C/O[C@@]2(C)Oc3c(C)c(O)c4c(c3C2=O)C2=NC3(CCN(CC(C)C)CC3)NC2=C(NC(=O)/C(C)=C\C=C\[C@H](C)[C@H](O)[C@@H](C)[C@@H](O)[C@@H](C)[C@H](OC(C)=O)[C@@H]1C)C4=O,Mycobacteroides abscessus,bacterial growth,subsp. massiliense 097 clinical isolate,"rough, slow grower",,IC50,949 nM
CN[C@H](CC(C)C)C(=O)N[C@H]1C(=O)N[C@@H](CC(N)=O)C(=O)N[C@H]2C(=O)N[C@H]3C(=O)N[C@H](C(=O)N[C@H](C(=O)O)c4cc(O)cc(O)c4-c4cc3ccc4O)[C@H](O)c3ccc(c(Cl)c3)Oc3cc2cc(c3O[C@@H]2O[C@H](CO)[C@@H](O)[C@H](O)[C@H]2O[C@H]2C[C@](C)(N)[C@H](O)[C@H](C)O2)Oc2ccc(cc2Cl)[C@H]1O,Enterococcus faecalis,agar dilution,compound-susceptible,74 isolates,,MIC50,1 µg/mL
O=c1[nH]c2nc(-c3ccccc3)sc2c(=O)n1O,Brassica rapa,,,"100 mg/mL, 72 h",,root length inhibition,92%
CCn1c(=O)c(-c2cc[nH]n2)cc2c(C)nc(N)nc21,Coxsackievirus B3,viral replication,HeLa,"concentration not given, 20 h",,viral titre,decreased
Cc1cc(OC(C)C)ccc1C(=O)C(C)(C)NC(=O)c1sccc1C,Botrytis cinerea,conidial germination,B05.10,0.03 µg/mL,,inhibition,11.1 ± 2.9%

# Some of these lines once more:
SMILES,organism,test,test system,conditions,how to read,quantity,result
CC[C@H]1OC(=O)[C@H](C)[C@@H](O[C@H]2C[C@@](C)(OC)[C@@H](O)[C@H](C)O2)[C@H](C)[C@@H](O[C@@H]2O[C@H](C)C[C@H](N(C)C)[C@H]2O)[C@](C)(O)C[C@@H](C)/C(=N\OCOCCOC)[C@H](C)[C@@H](O)[C@]1(C)O,Enterococcus faecalis,agar dilution,vancomycin-intermediate,20 isolates,,MIC50,> 128 µg/mL
CC1(C)OB(c2cccc(CNS(=O)(=O)c3cc(C(=O)Nc4cc(F)c(F)c(F)c4)ccc3F)c2)OC1(C)C,hepatitis B virus,"viral replication, qPCR, measured: intracellular core DNA",HepAD38 cells,6 days,,EC50,500 ± 70 nM
